Results from different studies.
Parts stem from different laboratories: compare values within a part only. Changes are numbered by the printed parent chain.
UniProt Q38828, sequence (whole entry, looked up): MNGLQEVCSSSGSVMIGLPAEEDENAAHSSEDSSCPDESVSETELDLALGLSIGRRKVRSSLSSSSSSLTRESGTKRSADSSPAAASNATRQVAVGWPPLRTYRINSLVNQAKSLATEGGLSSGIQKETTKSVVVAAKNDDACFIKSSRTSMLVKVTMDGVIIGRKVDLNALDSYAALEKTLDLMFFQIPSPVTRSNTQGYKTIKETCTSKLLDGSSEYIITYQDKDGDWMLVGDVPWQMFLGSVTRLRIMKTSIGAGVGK
UniProt Q38830, sequence (whole entry, looked up): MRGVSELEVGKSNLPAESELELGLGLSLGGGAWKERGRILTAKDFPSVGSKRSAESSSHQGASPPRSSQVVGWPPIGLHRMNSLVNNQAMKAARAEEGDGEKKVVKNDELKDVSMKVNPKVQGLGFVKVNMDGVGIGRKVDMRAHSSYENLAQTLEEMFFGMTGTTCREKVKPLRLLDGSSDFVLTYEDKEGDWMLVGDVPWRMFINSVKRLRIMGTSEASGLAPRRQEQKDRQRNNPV
UniProt O24410, sequence (whole entry, looked up): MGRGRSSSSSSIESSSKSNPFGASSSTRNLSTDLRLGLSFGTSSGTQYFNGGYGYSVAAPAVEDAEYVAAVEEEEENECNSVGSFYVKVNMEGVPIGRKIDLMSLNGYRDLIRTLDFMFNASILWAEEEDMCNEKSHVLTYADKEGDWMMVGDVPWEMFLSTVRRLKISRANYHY
UniProt Q93WC4, sequence (whole entry, looked up): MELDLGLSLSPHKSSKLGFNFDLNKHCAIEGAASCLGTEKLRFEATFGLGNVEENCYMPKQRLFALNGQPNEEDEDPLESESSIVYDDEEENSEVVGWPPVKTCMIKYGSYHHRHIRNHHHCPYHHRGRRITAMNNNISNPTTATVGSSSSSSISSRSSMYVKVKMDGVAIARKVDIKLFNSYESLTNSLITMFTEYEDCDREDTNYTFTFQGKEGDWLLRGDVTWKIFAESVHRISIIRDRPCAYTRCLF
UniProt Q38825, sequence (whole entry, looked up): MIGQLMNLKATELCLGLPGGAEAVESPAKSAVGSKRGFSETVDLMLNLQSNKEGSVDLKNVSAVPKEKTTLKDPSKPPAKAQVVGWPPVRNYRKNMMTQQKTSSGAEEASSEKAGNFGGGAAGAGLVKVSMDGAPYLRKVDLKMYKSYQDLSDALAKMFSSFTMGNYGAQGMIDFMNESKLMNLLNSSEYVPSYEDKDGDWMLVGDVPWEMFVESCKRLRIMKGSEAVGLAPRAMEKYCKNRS
UniProt Q93YR9, sequence (whole entry, looked up): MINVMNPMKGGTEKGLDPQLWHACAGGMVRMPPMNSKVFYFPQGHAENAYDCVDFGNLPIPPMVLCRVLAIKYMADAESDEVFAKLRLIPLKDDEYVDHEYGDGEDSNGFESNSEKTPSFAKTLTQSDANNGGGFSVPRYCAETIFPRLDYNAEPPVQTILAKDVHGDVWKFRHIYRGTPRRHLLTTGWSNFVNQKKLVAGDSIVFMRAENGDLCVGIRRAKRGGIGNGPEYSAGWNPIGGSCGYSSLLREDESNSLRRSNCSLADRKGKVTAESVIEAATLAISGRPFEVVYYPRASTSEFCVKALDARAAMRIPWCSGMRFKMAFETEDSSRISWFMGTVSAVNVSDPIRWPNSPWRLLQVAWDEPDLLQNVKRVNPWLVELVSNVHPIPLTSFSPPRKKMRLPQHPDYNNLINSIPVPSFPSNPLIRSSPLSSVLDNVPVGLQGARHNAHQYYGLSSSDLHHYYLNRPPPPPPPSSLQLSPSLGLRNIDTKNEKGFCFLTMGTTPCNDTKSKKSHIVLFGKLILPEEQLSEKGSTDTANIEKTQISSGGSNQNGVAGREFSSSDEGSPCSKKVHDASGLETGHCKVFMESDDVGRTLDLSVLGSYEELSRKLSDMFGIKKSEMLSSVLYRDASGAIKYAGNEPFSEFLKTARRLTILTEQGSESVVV
UniProt Q8LAL2, sequence (whole entry, looked up): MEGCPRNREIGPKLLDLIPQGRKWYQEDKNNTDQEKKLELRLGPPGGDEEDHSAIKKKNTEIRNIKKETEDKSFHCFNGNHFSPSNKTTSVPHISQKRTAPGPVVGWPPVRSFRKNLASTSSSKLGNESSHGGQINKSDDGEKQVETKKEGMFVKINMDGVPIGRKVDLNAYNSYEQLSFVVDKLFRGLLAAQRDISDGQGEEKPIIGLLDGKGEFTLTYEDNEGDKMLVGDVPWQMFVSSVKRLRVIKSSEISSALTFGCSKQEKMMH

Set 1
Target: RNA binding protein fox-1 homolog 2, RRM domain, GST-SBP tag (RBFOX2, Homo sapiens, UniProt O43251-10, residues 100-194)
Technique: RNA Bind-n-Seq
Molecule type: RNA
Sample: in vitro
Concentration: 365 nM
Setting: natural RNA segment, single round, ends assumed
Baseline: no-protein control
Direction: higher = stronger binding
All sequences stand within: GGGAGUUCUACAGUCCGACGAUC … UGGAAUUCUCGGGUGCCAA
Construct (chain): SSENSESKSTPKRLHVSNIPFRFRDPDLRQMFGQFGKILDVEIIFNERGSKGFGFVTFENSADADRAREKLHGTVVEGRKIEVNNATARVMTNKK
Sequence | RBNS enrichment (R)
CUUCUAGGGCUCUGAAUACGGGCUUAAAGUCAUCUUGUCCUGCUGGAAUUUGCUGUGCAGAGCCAUAAGCCUCCCAUUUUGUUAGCGUCAGCUAGGCCAAUAGGAACAGA | 0.309
GACCUGUCACGAGCCUCUGCAGGUGCCUGCUCACCAUGGCCCAGCGCCACUCUGUCCUCCGACUCAGGUGAGGGGGCAGCCCACAGACCUGCUCCUCAGUAGCAGGGCCU | 0.204
GUGUCCUGUGAAUUUCAACCCUUGGAGCCUAAGAAAACCCUAGGAAGAUGAUGUUAAUUUGCUGUCAUUUCCUAAUUCAGGAUCUAUCAUCAAAUGAAACAUGAAAAAAA | 0.206
UGGGGGGUGGGGAACCUCCUUCCACCUGCGCUUCCUUGAGGGGACCAGAGAGCCCUUGGUCCCAGGUCUCUUGAGCUUUUGUGUCAUGUUGCAGCAGAGUGAAGAUGGGG | 0.587
GUUUCAAGCCAAAAACUCUCAAGACAGAAAAUUGCACCUCAGCUGGGUUGAUUUCAAAAUGCCAGCAUGGACAGUAUGGGAGGACGAUCCGGAUGUGUCAAAGAGAACUU | 2.05
CUGAGAUUUCCAGCUUUAUAACCAAAGCUUGAUAUAUGUCACAUUGUCACAGAAGAGAGAAAAGAUCAUUGAGGACAGUUGCCUUGGGAGAGUUCAAGUCUUUGUCGUUA | 0.659
ACAGAUCUAACCAUGCAUUGCUAGCUCUGCUCCCAGCAUCCCUUCCCCUUCUCUCCUCCUCUGCCUCACUUCUUUAGUAAUCCCAACCCUAUAAAAAUGAACCUAAUGGG | 4.71
AUUGUAUAGUAGUUUAGUAACUAUGAAGACUGGUUUGUAAGGAAGGAAACGUUUACUACUAAGGUUAGGCCUGCAGUUGCUCUGGAACAUUCCAUGGAGAAUGCAUUCAU | 0.487
ACUGGGCUGGCAAUUGUCUGAACACUUGGGUUCAGUUGAAAUAUAUGUAUUUUGGCCAAAAGCCAGCAGCACUUCACAAAAACAAAACACAAACCUAAGCUAACAAAAUG | 0.452
AGGAGUUUGGGAUUUUGGCAAAGACCAAAUACUUUCAAAUGUUGAAGAUGCAUGCGAUGAAUACCAACAAUAUCACUGAGCUAGUGAACUAUUUGGCAAAUGACUUAAGG | 17.5
UGUGCAGAGUUAGGUUCCAUCUCCAGCAUCACGCACGGGUCUUGUGAACACCGACAUCUUCAGUUUACUUGUGUCUGCAGUUCUGUGGACAGAACAAAGCCAUUCACAAG | 0.365
UUACUGUGGCCCUCUUGUCUGGCAGCCUGGAGCCCAGGGAGGGACAGGGGCUUAUAGCUGCUGUAUGAGAACAUAAAGACUAGUGCACAGUGCUAUCUCCAUCUACUGAC | 0.544

Set 2
Target: Interferon regulatory factor 7, full length, phosphomimetic (IRF7, Homo sapiens, UniProt Q92985, residues 1-503, S101K/S471D/S472D/S475D/S476D/S477D/S483D/S484D/S487D)
UniProt Q92985, sequence (whole entry, unmodified, looked up): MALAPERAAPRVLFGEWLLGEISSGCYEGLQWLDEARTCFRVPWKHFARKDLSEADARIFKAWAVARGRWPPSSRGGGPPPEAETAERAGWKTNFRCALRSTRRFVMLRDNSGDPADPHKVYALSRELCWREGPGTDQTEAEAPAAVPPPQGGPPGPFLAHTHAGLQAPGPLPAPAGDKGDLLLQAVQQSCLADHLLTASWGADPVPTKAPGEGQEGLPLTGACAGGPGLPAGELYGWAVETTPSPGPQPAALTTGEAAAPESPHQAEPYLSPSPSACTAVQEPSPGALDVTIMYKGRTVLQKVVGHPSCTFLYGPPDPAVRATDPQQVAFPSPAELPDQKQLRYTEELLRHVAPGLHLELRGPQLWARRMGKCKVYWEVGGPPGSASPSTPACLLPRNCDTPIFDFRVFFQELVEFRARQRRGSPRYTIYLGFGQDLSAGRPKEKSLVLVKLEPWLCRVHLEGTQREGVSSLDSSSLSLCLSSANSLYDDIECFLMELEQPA
Technique: protein-binding microarray
Molecule type: double-stranded DNA, one strand shown
Sample: in vitro
Concentration: 250 nM
Setting: 60-bp whole probe
With: salmon DNA 0.4 mg/ml
Baseline: random background probes
Direction: higher = stronger binding
All sequences stand within: GCCTAGCAC … GTCTTGATTCGCTTGACGCTGCTG
Sequence | log fluorescence [z-score]
GACGGACTGCTAGTGCTGACGTGCTAG | -0.849
TAAGGACTGGGTTTCGGTTAGTGCTAG | 7.38
GGGGTTTCGGATGGGATGTCGTGCTAG | 4.46
GAGATTTCCATTATTGCTTCGTGCTAG | 1.13
TTAGGTATCTTTATCCTTTAGTGCTAG | 0.299
TTAGGACTGGGTATCCGTTAGTGCTAG | -0.0302
TTTGGTATCGACTTTCGGTTAGTGCTA | 4
GACGATTTAGGGTATCGAGACGTGCTA | -0.172
TTAGGTCTCGGACTCGGTTAGTGCTAG | 1.71
TAAGGTTTCGACTTTCGGTTAGTGCTA | 11.7
TTAGATATCGGGAATGGATTAGTGCTA | -0.183
GACTGTATCGACTATCGGGACGTGCTA | -0.144
TCAGGTCTCCCTTGAGGACTGTGCTAG | -0.157
TTAGATTTCGGTTTTCGATTAGTGCTA | 7.23
TTAGGTTTCGGTAGCGGTTAGTGCTAG | 3.46
TCAATCTTAGATATTAAACTGTGCTAG | 0.17
CCTGGCTCCATGGAATTTTTGTGCTAG | -0.658
TTAGGTATCGGGATCGGTTAGTGCTAG | 1.45
TCAACTCTGTCCCTCTGACTGTGCTAG | 0.0337
GACGAACTGGGGTATCGAGACGTGCTA | -0.53
TTAGGTATCCTTTTCCTTGAGTGCTAG | 1.81
GACGGTATGGGGTTTCGGGACGTGCTA | 0.952
TCAAGTATGACTCTGCCACTGTGCTAG | -0.0746
TTAGGACTGAACTATCGGTTAGTGCTA | -0.111
TCATTTATATACCTGAAACTGTGCTAG | 1.22

Set 3
Target: Histone acetyltransferase KAT6A, winged helix 1, GST fusion (KAT6A, Homo sapiens, UniProt Q92794, residues 1-85)
Technique: protein binding microarray
Molecule type: double-stranded DNA, one strand shown
Sample: in vitro
Concentration: not given
Setting: 8-mer, flanks averaged, mean of 2 arrays, mostly near background
Baseline: not given
Direction: higher = stronger binding
Target sequence (chain): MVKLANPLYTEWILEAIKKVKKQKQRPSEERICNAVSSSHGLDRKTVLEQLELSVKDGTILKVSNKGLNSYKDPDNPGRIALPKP
Sequence | E-score
ATCTTTTA | -0.131
GATGTCGC | 0.198
GTAATCAC | -0.00957
ACCATACA | -0.0794
GAATGATC | -0.0942
CTCTATAC | -0.0435
ACTAGTCA | -0.193
TCCGCTAA | 0.2
AGTTCATA | -0.113
GTAGTCAA | -0.108
ATCCGGAG | 0.122
AGCTCGAG | 0.0452
GCTACAAA | -0.2
CAAGCAGG | -0.128
ACGCATGA | 0.0699
ACAAGGAA | -0.161
CCTAAGCG | 0.193
CCGTACGC | 0.45
CTAGCCAG | -0.278
AAGCTGTC | -0.218
AAGGGGTA | -0.254
CGATTGCC | 0.191
CGCGGAAA | 0.353
TGGGTCAA | -0.298
GGTTCCTA | -0.225

Set 4
Target: Sal-like protein 4, full length isoform A (SALL4, Homo sapiens, UniProt Q9UJQ4, residues 1-1053)
UniProt Q9UJQ4, sequence (whole entry, looked up): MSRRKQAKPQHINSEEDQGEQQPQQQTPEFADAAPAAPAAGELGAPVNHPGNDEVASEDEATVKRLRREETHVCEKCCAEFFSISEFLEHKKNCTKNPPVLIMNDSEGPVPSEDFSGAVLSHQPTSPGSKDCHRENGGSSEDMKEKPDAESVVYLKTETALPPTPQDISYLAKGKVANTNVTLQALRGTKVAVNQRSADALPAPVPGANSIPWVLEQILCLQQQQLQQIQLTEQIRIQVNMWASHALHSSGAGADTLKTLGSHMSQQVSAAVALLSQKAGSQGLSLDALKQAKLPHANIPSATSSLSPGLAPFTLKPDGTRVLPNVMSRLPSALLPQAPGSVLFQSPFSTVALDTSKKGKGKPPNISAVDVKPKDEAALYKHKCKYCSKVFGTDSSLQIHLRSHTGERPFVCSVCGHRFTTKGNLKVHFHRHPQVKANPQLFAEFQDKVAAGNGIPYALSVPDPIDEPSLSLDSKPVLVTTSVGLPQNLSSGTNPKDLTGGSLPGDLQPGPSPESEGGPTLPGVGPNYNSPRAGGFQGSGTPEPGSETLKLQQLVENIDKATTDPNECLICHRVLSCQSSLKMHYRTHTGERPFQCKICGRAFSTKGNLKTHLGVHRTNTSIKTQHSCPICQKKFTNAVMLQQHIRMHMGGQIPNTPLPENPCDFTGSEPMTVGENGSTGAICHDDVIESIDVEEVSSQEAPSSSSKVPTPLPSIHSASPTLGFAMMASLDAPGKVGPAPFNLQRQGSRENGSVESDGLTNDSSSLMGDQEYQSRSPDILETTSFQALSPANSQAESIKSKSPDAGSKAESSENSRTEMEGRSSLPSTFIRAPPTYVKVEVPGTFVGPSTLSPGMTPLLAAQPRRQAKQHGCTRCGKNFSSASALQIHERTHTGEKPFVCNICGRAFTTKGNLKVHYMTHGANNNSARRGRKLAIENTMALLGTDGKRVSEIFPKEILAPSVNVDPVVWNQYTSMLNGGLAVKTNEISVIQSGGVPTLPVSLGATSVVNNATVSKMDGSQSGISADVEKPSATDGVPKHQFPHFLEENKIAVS
Technique: universal PBM
Molecule type: double-stranded DNA, one strand shown
Sample: in vitro
Concentration: 600 nM
Setting: 8-mer, flanks averaged, mean of replicates
Direction: higher = stronger binding
Sequence | E-score
AGAATGAG | 0.073
CAAGCCAA | 0.0331
TGAGGACA | 0.0958
GGGAGTAA | 0.0841
ATTGGTTC | 0.0729
AACCACTC | -0.169
GCATCCTA | -0.0491
ATCGCAAC | -0.0782
CTCACAGA | 0.0909
CCCACATA | 0.133
CTGGCTAA | -0.0973
GAGATAGA | -0.0163
TGATGCAA | 0.102
GAAGCGTC | -0.0703
ACAGGATA | 0.141
CTGGAGGC | -0.108
CTTCGAGC | -0.209
CGCGCTTC | -0.212
GTTGAGCA | -0.106
ATCACAAC | 0.207
ACGGGCTC | -0.33
AGCGAGGC | -0.266
GCTGATCC | -0.211
CATGATCA | 0.208
CACTCTCA | -0.0131

Set 5
Sequence: B1 (IAA6)
Technique: two-hybrid
Baseline: out of 4 tests
Direction: higher = firmer interaction
B1: IAA6 (Arabidopsis thaliana, UniProt Q38824); chain MAKEGLALEITELRLGLPGDNYSEISVCGSSKKKKRVLSDMMTSSALDTENENSVVSSVEDESLPVVKSQAVGWPPVCSYRRKKNNEEASKAIGYVKVSMDGVPYMRKIDLGSSNSYINLVTVLENLFGCLGIGVAKEGKKCEYIIIYEDKDRDWMLVGDVPWQMFKESCKRLRIVKRSDATGFGLQQD
partner | setting | positive tests
IAA12 (Arabidopsis thaliana, UniProt Q38830) | – | 0
IAA29 (Arabidopsis thaliana, UniProt Q93WC4) | – | 0
IAA26 (Arabidopsis thaliana, UniProt Q8LAL2) | – | 0
IAA7 (Arabidopsis thaliana, UniProt Q38825) | – | 0
ARF16 570-670 (Arabidopsis thaliana, UniProt Q93YR9) | – | 0
IAA10 (Arabidopsis thaliana, UniProt Q38828) | – | 0
IAA20 (Arabidopsis thaliana, UniProt O24410) | weak activation fusion | 0

Set 6
Target: CCNA2, cyclin fold, Cln2 fusion (human)
Technique: yeast growth competition, sequencing
Sample: yeast
Setting: strong parent motif
Baseline: not given
Direction: higher = stronger binding
Starting sequence: WEE1 docking peptide (human); HKTFRKLRLFDTP
Change | normalised enrichment score
T12M | 2.01
F10H | 0.394
F10V | 0.531
R8N | 0.809
P13Q | 0.712
K2L | 0.953
T12D | 2.55
R5P | 0.296
H1R | 0.514
D11N | 0.44
P13M | 2.68
K2S | 1.26
H1K | 1.89
R8G | 0.507
H1P | 1.26
P13T | 2.66
R5K L9F | 1.2
D11Q | 3.2
F4C | 1.09
K6V | 1.33
R8Q | 2.2
F10G | 0.538
T12V | 1.65
R8L | 1.39
K2V | 0.534

A few entries again (set 2):
Sequence | log fluorescence [z-score]
TTAGGTATCTTTATCCTTTAGTGCTAG | 0.299
GACGAACTGGGGTATCGAGACGTGCTA | -0.53
CCTGGCTCCATGGAATTTTTGTGCTAG | -0.658
TCAAGTATGACTCTGCCACTGTGCTAG | -0.0746
TTAGGTTTCGGTAGCGGTTAGTGCTAG | 3.46
TTAGATATCGGGAATGGATTAGTGCTA | -0.183
GACGGACTGCTAGTGCTGACGTGCTAG | -0.849
TTAGGACTGGGTATCCGTTAGTGCTAG | -0.0302
TTAGGACTGAACTATCGGTTAGTGCTA | -0.111
GGGGTTTCGGATGGGATGTCGTGCTAG | 4.46
TCAATCTTAGATATTAAACTGTGCTAG | 0.17
TAAGGTTTCGACTTTCGGTTAGTGCTA | 11.7
TTAGATTTCGGTTTTCGATTAGTGCTA | 7.23
GACGGTATGGGGTTTCGGGACGTGCTA | 0.952
TTAGGTATCGGGATCGGTTAGTGCTAG | 1.45
TCAGGTCTCCCTTGAGGACTGTGCTAG | -0.157
TTAGGTATCCTTTTCCTTGAGTGCTAG | 1.81
TTAGGTCTCGGACTCGGTTAGTGCTAG | 1.71
GACGATTTAGGGTATCGAGACGTGCTA | -0.172
